# Experimental data collected from several papers.
# Lines come from different studies, so protocols differ. ± gives the spread as reported.
# Target: Broad substrate specificity ATP-binding cassette transporter ABCG2 (ABCG2, Homo sapiens, UniProt Q9UNQ0)
# Residues used in one study (Q9UNQ0 1-655): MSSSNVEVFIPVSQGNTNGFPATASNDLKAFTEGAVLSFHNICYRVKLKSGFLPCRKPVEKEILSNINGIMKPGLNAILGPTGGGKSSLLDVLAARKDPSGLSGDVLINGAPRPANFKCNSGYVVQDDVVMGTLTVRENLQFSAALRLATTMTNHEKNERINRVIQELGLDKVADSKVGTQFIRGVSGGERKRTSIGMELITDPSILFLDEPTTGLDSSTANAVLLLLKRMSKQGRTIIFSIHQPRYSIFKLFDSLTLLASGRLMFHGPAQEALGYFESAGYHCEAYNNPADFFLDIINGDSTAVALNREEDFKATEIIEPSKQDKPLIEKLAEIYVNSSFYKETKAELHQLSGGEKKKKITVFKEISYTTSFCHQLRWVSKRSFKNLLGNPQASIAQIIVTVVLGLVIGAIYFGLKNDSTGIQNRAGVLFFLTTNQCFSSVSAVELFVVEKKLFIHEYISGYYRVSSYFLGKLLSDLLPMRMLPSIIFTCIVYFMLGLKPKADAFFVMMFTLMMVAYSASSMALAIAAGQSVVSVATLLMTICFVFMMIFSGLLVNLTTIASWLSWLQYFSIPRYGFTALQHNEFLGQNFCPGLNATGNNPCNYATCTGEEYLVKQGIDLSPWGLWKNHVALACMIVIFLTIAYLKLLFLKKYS
SMILES,test,system,conditions,scale,quantity,result
O=C(c1ccccc1)N1CCN(c2cc(-c3ccccc3)nc3cc(-c4ccc(F)cc4)nn23)CC1,"JC-1 dye efflux, inhibitor, flow cytometry",ABCG2-overexpressing cells,added: JC-1 1 µM,,IC50,2030 ± 110 nM
O=C(O)[C@H]1O[C@@H](Oc2c(-c3ccccc3)oc3cccc(O)c3c2=O)[C@H](O)[C@@H](O)[C@@H]1O,"glucuronide efflux, substrate",HeLa cells expressing UGT1A9,,,Km,12.8 ± 2.9 µM
O=C(c1ccc(Cl)cc1)N1CCN(c2cc(-c3ccccc3)nc3cc(-c4cccc(Cl)c4)nn23)CC1,"JC-1 dye efflux, inhibitor, flow cytometry",ABCG2-overexpressing cells,added: JC-1 1 µM,,IC50,2670 ± 850 nM
CC(=O)c1cc(C(=O)N[C@@H](C)Cn2ccc(-c3ccc(C#N)c(Cl)c3)n2)[nH]n1,inhibitor,MDCK,added: cladribine substrate,,IC50,570 nM
O=c1cc(-c2ccccc2)c(=O)c2c1c1c(=O)c3ccccc3c1n2Cc1ccccc1,"mitoxantrone efflux, inhibitor, flow cytometry",HEK293 transfected with ABCG2,"10 µM, 30 min, added: mitoxantrone 5 µM",reference: Ko143 1 µM,inhibition,41%
COc1ccc(-c2cc3nc(-c4ccccc4)cc(N4CCN(C(=O)c5ccoc5)CC4)n3n2)cc1,"JC-1 dye efflux, inhibitor, flow cytometry",ABCG2-overexpressing cells,added: JC-1 1 µM,,IC50,1160 ± 660 nM
O=C(O)[C@H]1O[C@@H](Oc2cccc3oc(-c4ccccc4)cc(=O)c23)[C@H](O)[C@@H](O)[C@@H]1O,"glucuronide efflux, substrate",HeLa cells expressing UGT1A9,,,Km,> 17 µM
O=c1cc(-c2ccccc2)c(=O)c2c1c1c(=O)c3ccccc3c1n2CCc1ccccc1,"mitoxantrone efflux, inhibitor, flow cytometry",HEK293 transfected with ABCG2,"10 µM, 30 min, added: mitoxantrone 5 µM",reference: Ko143 1 µM,inhibition,128 ± 6%
C=CC(=O)N1CCC([C@@H]2CCNc3c(C(N)=O)c(-c4ccc(Oc5ccccc5)cc4)nn32)CC1,"transport, measured: Lucifer Yellow uptake",membrane vesicles,1 µM,reference: vehicle,remaining activity,94.5 ± 3.5%
O=C(c1ccoc1)N1CCN(c2cc(-c3ccccc3)nc3cc(-c4ccc(Br)cc4)nn23)CC1,"JC-1 dye efflux, inhibitor, flow cytometry",ABCG2-overexpressing cells,added: JC-1 1 µM,,IC50,760 ± 430 nM
O=c1ccc(=O)c2c1c1c(=O)c3ccccc3c1n2CCc1ccccc1,"mitoxantrone efflux, inhibitor, flow cytometry",HEK293 transfected with ABCG2,"10 µM, 30 min, added: mitoxantrone 5 µM",reference: Ko143 1 µM,inhibition,18%
CCN1C(=O)N(c2c(F)c(OC)cc(OC)c2F)Cc2cnc3[nH]c(CN4CCOCC4)cc3c21,"efflux, substrate",,,,saturating concentration,30 µM
CCOc1cc2ncc(C#N)c(Nc3ccc(OCc4ccccn4)c(Cl)c3)c2cc1NC(=O)/C=C/CN(C)C,"substrate, bidirectional transwell permeability",MDCKII cells transfected with ABCG2,"1 µM, 1 h, pH 7.4",reference: without over with ABCG2 inhibitor,net efflux ratio,2.14

# A few entries again:
SMILES,test,system,conditions,scale,quantity,result
O=C(O)[C@H]1O[C@@H](Oc2c(-c3ccccc3)oc3cccc(O)c3c2=O)[C@H](O)[C@@H](O)[C@@H]1O,"glucuronide efflux, substrate",HeLa cells expressing UGT1A9,,,Km,12.8 ± 2.9 µM
CCOc1cc2ncc(C#N)c(Nc3ccc(OCc4ccccn4)c(Cl)c3)c2cc1NC(=O)/C=C/CN(C)C,"substrate, bidirectional transwell permeability",MDCKII cells transfected with ABCG2,"1 µM, 1 h, pH 7.4",reference: without over with ABCG2 inhibitor,net efflux ratio,2.14
